Results gathered from unrelated publications.
Numbered parts are unrelated; each lists some results of a single study. Positions count from the first letter of the parent shown.

Study 1 — technique: RNA Bind-n-Seq; molecule type: RNA; medium: in vitro; tested at: 20 nM; setting: 6-mer, flanks averaged, single round; together with: 150 mM KCl; relative to: input library; reading: higher = stronger binding
Target: TAR DNA-binding protein 43, full length, His tag (TARDBP, Homo sapiens, UniProt Q13148, residues 1-414)
`AUUCGC`: “6-mer enrichment (R)” 0.588.
Under “6-mer enrichment (R)”, `ACAACA` is recorded as 0.769.
For `UGGGUA`, “6-mer enrichment (R)” read 1.85.
Under “6-mer enrichment (R)”, `CCAAUU` is recorded as 0.633.
For `CGGGUC`, “6-mer enrichment (R)” read 1.8.
Under “6-mer enrichment (R)”, `CGCAUU` is recorded as 0.618.
`UCAGAA`: “6-mer enrichment (R)” 0.657.
Under “6-mer enrichment (R)”, `CCACAA` is recorded as 0.649.

Study 2 — target: CCND2, cyclin fold, Cln2 fusion (human); technique: yeast growth competition, sequencing; medium: yeast; setting: weak parent motif; relative to: not given; reading: higher = stronger binding
Starting sequence: WEE1 docking peptide (human); HKTFRKLRLFDTP; partner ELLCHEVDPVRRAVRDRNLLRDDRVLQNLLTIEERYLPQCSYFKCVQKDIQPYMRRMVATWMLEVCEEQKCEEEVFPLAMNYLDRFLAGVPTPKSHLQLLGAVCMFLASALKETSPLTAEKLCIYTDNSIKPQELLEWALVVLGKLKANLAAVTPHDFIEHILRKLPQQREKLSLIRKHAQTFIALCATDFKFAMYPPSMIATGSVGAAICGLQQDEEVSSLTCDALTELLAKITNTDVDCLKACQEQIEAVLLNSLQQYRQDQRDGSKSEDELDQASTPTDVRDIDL
Under “normalised enrichment score”, `HKTFRHLRLFDTP [K6H]` is recorded as 0.238.
For `HKVFRKLRLFDTP [T3V]`, “normalised enrichment score” read 0.464.
`HKTFRKIRLFDTP [L7I]` — result for “normalised enrichment score”: 0.075.
Under “normalised enrichment score”, `HKTFRKLGLFDTP [R8G]` is recorded as 0.0437.
`HKTFRKLRLFWTP [D11W]` — result for “normalised enrichment score”: 0.0417.
For `HKTFRVLRLFDTP [K6V]`, “normalised enrichment score” read -0.186.
For `HKTFRKLRLEDTP [F10E]`, “normalised enrichment score” read 0.0581.
`HKTFRKLRLFTTP [D11T]`: “normalised enrichment score” -0.025.
`HKTFRRLRLFDTP [K6R]` — result for “normalised enrichment score”: 0.758.
`HKTFRKLRLFDTY [P13Y]` — result for “normalised enrichment score”: 0.0279.
`LKTFRKLRLFDTP [H1L]` — result for “normalised enrichment score”: -0.351.
`HKLFRKLRLFDTP [T3L]`: “normalised enrichment score” -0.166.
`HKTFRKLRLMDTP [F10M]` — result for “normalised enrichment score”: 0.265.
For `EKTFRKLRLFDTP [H1E]`, “normalised enrichment score” read -0.0275.
`HKTTRKLRLFDTP [F4T]` — result for “normalised enrichment score”: 0.307.
`HKTFRKLRHFDTP [L9H]`: “normalised enrichment score” 0.0166.
For `HKTFIKLRLFDTP [R5I]`, “normalised enrichment score” read 0.0615.
`HKTFRKLKLFDTP [R8K]` — result for “normalised enrichment score”: 0.349.
`QKTFRKLRLFDTP [H1Q]`: “normalised enrichment score” 0.239.

Study 3 — technique: RNA Bind-n-Seq; molecule type: RNA; medium: in vitro; tested at: not given; relative to: input RNA pool; reading: higher = stronger binding
Target: RING finger protein unkempt homolog, zinc fingers 1-6, GST-SBP tag (UNK, Homo sapiens, UniProt Q9C0B0, residues 30-357)
Setting: RNA with constant flanks, human-mouse chimeric sites, ends assumed
All sequences stand within: GGGAGUUCUACAGUCCGACGAUC … CAACAGAGGAUUGAGCAUCA
Target sequence (chain): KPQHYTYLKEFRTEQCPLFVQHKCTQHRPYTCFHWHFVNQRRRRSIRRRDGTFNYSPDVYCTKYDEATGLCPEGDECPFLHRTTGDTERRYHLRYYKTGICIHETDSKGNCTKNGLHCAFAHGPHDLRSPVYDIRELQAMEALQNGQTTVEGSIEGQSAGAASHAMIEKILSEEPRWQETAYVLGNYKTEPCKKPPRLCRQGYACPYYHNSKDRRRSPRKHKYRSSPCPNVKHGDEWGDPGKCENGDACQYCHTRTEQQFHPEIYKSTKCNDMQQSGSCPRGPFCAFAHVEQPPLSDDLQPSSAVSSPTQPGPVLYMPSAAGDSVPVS
With `GAUAAGAAAAGCUUGUUGGAGACCCGCUUGCAUGUCACUGGUAGAGACCUGAGGUGUCAAAUAGCUGAAACCUUUGGACUUCAAGAAAAUUACAUCAAGAUCGUAAUAAAUAAGAAACAG` the bound/input enrichment was 0.257 ratio.
`UCCUUGGAACCCAGUCAUAUAGGUGACCUGCAAAAAGCAGACACCAGUAGUCAAGGUGCUUUAGUGUUUCUCUCAAAGGACUACGAAAUAGAAAAUCAAAAUCCUCUGGCCUCUCCUACG` gave a bound/input enrichment of 2.62 ratio.
For `CCCCAAUACCAUUUGCAGGUCUGGAACUGCACUCUCUUUAAAGUUUUACAUGUAUACAUUUUAGGGCUGUAGAUUUAUUUUCCUGGUUUUGUUUUUCAUUGCUGACUUUGAGCACAAGAA`, the bound/input enrichment was 2.32 ratio.
For `UUGCUACUGACUCCCUGGGUUAAAUUCCUGUGGGAAUCAUACAGGCAGUGUUUGGACCUUCUUCGAAACAAUUCUAGAGUAGAGCGCCUUUACCAUGAUAUCGCCCAGCAAGCUUUCAAA`, the bound/input enrichment was 0.216 ratio.
`UACUCAACUUUCUUGCCACAUUUUGAAUUCCAAGACAUUAUUCCUCCAGAUGACUUCCUAACUAGUGAUGAAGAGCAAGAUUUGGUUUUAUUUGGAACUAUGAGAGGACAAGUUGUUGGA` gave a bound/input enrichment of 0.34 ratio.
The bound/input enrichment of `CAGGGCAUUAUUUCUCGUGCUGUUAGACACCUUUUUAAGAGUAUUGAUGAGAAAAAGACCUCAGCGAUUAAAAACGGGCUGCCCCCUCCUGAAUUCAAAGUGAAUGCCCAGUUCCUAGAG` is reported as 0.27 ratio.
`UCAUUUUUCUCUUUUCUUUCUUUCCUUAAAAGCCUAACUAAAGAUUAGGUUGUAAGAAAAAUAGAAGCCAUGUUUCGAAGACCUGUGUUACAGGUAUUUCGUCAGUUUGUAAGACAUGAG` has a bound/input enrichment of 0.191 ratio.
`AAAGUGAUGACUAUGUUUGUCCAACGACAGGUAUUUUCUGAGAACAAAGAUGAGAUUGCGUUAGUCCUCUAUGGCACAGAUGGCACUGAUAAUGCCCUUGCUGGCAAGGACCAGUAUCAG` gave a bound/input enrichment of 0.0716 ratio.

Study 4 — technique: DHFR PCA, deep sequencing; medium: yeast; together with: (+)-ABA 0.11 µM; relative to: wild-type fitted maximum; reading: higher = stronger binding
Target: ABI1, truncated, D143A, DHFR fusion (Arabidopsis thaliana)
Setting: methotrexate growth selection, single substitutions
Starting sequence: PYL1, truncated, DHFR fusion (Arabidopsis thaliana); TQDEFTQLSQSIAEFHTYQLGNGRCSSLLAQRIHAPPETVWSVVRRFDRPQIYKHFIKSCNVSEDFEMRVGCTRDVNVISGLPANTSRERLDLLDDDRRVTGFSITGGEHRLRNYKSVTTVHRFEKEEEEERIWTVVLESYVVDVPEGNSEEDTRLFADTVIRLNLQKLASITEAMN
`N61V`: “relative binding score” 53%.
`N165F` — result for “relative binding score”: 1.39%.
`Q19M` — result for “relative binding score”: 10.2%.
`L112M` — result for “relative binding score”: 10.5%.
For `S27G`, “relative binding score” read 55.4%.
`R24D`: “relative binding score” 1.8%.
For `G148H`, “relative binding score” read -5.41%.
Under “relative binding score”, `R99W` is recorded as 72.2%.

Mixed results
`PhoQ, residues 284 288 289 292 302 303 TTCLQL` has a fold induction of 8.81 (PhoP, residues 12 14 15 18 19 GHCSL (Escherichia coli, UniProt P23836); Sort-seq, item: YFP reporter; E. coli; PhoQ-PhoP variant library, together with: 10 µM Mg2+; relative to: high Mg2+ state, higher = stronger signaling).

Repeated from above (study 2):
`HKLFRKLRLFDTP [T3L]`: “normalised enrichment score” -0.166.
For `HKTFRKLRLEDTP [F10E]`, “normalised enrichment score” read 0.0581.
`HKTFRKLRLMDTP [F10M]` — result for “normalised enrichment score”: 0.265.
For `HKVFRKLRLFDTP [T3V]`, “normalised enrichment score” read 0.464.
Under “normalised enrichment score”, `HKTFRKLGLFDTP [R8G]` is recorded as 0.0437.
